Experimental data gathered from unrelated publications.
Each line is one published result; not all experiments were run side by side. Several values in a cell are separate wells, animals, samples, runs or records. Numbers after ± are the reported error. Non-standard residues stand in square brackets, D forms with d.

Cc1cncc2cccc(S(=O)(=O)N3CCCN(C(=O)CN)C[C@@H]3C)c12  Gini score (panel of 300 human kinases; 0.5 µM; direction not given): 0.738
IINFEKE  K1/2 of L-AMC (ERAP1 human wild type; activator; peptide; 100 µM, pH 8.0, 27 °C, together with: L-AMC substrate): 0.34 ± 0.08 mM
CC(=O)N[C@@H](CC(N)=O)C(=O)NCC(=O)N[C@@H](CCCCN)C(=O)N[C@@H](C)C(N)=O  rate constant k1 (Asn-Gly peptide isomerisation to succinimide; 1H NMR time course; pH 7.4, 46 °C): 0.074 h⁻¹
CC(C)(C)c1cc(C(C)(C)C)c(NC(=O)c2c[nH]c3ccccc3c2=O)cc1O  CFTR activity (CFTR G1244E human; short-circuit current, potentiator; CFBE; 14.44 µM, together with: forskolin 20 µM; relative to: PKA-activated wild type): 25.1 ± 6%
CN(C)CC[C@@H]1NC(=O)c2coc(n2)-c2coc(n2)-c2cccc(c2)-c2cccc(c2)-c2nc(co2)-c2nc(co2)CNC1=O  melting temperature shift (human telomeric quadruplex d(TTAGGG)4; UV melting; 20 µM, pH 7.5, together with: 50 mM K+; relative to: DNA without compound): 8.4 °C
CC(=O)N[C@@H](CC(=O)O)C(=O)N[C@@H](CC(C)C)C(=O)N[C@@H](Cc1c[nH]c2ccccc12)C(=O)N[C@@H](CCCCN)C(=O)N[C@@H](CC(C)C)C(=O)NCCCOCCOCCOCCCNC(=O)CCCCCCCCCCS  adhesion pull-off force (anti-p53 antibody; binding, AFM force spectroscopy; second monolayer): 1.3e-10 ± 2.9e-11 N
O=C(O)c1cc(SSc2ccc([N+](=O)[O-])c(C(=O)O)c2)ccc1[N+](=O)[O-]  remaining activity (bovine lens protease; 0.2 mM, 37 °C): 1%
O=C1N[C@@H](Cc2ccccc2)C(=O)NCc2coc(n2)-c2coc(n2)-c2cccc(c2)-c2cccc(c2)-c2nc(co2)-c2nc1co2  melting temperature shift (human telomeric quadruplex d(TTAGGG)4; UV melting; 20 µM, pH 7.5, together with: 150 mM K+; relative to: DNA without compound): 1.6 °C
CN(C)CCCN  peptide depletion (cysteine peptide Ac-RFAACAA-COOH; DPRA RapidFire-MS/MS; 24 h, pH 7.5, together with: 5.0 µM cysteine peptide): inactive
c1cnc2c(c1)ccc1cccnc12  remaining activity (bovine lens protease; enzyme activity, inhibitor; 500 µM, 30 min preincubation, 37 °C): 8%
COC(=O)c1ccccc1O  peptide depletion (cysteine peptide Ac-RFAACAA-COOH; DPRA RapidFire-MS/MS; 24 h, pH 7.5, together with: 5.0 µM cysteine peptide): inactive
CC(C)[C@@H]1NC(=O)c2coc(n2)-c2coc(n2)-c2coc(n2)[C@H](CCN(C)C)NC(=O)c2coc(n2)-c2coc(n2)-c2coc1n2  melting temperature shift (human telomeric quadruplex d(TTAGGG)4; UV melting; 20 µM, pH 7.5, together with: 50 mM K+; relative to: DNA without compound): 37.4 °C
CN1CCCC2C(c3ccccc3)C(C3=NCCCC3)C(c3ccccc3)CC21 (stereo not drawn)  maximal ΔTm (pre-miR-21 RNA; differential scanning fluorimetry; relative to: untreated, positive = stabilisation): -14 °C
CCCCCCCC/C=C\CCCCCCCC(=O)OCC(COC(=O)CCCCCCC/C=C\CCCCCCCC)OC(=O)CCCCCCC/C=C\CCCCCCCC  brain uptake of I-Aβ (amyloid beta peptide; brain/serum ratio; male CD-1 mouse; intravenous, 7.2 mg, 10 min, together with: radioiodinated Aβ co-injected): no effect
Cc1ccc(OCC(=O)N(Cc2nc(-c3ccc(C)cc3)no2)C(C)C)cc1  activity recovered (rabbit 20S proteasome chymotrypsin-like; dialysis; 10 µM, 20 min dialysis, 30 min preincubation): > 70%
Nc1ncnc2c1ncn2[C@@H]1O[C@H](COP(=O)(O)OP(=O)(O)NP(=O)(O)O)[C@@H](O)[C@H]1O  genistein inhibition (rod CNG channel, Ambystoma tigrinum; ion current, inhibitor, inside-out patch clamp; 500 µM, 1 min, closed channels, together with: 100 µM genistein): decreased
CCO/C=C1\N=C(c2ccccc2)OC1=O  maximal peptide depletion (cysteine peptide Ac-RFAACAA-COOH; DPRA RapidFire-MS/MS; 24 h, pH 7.5, together with: 5.0 µM cysteine peptide): -95.4%
AAPSPLFVPGPLPQL  concentration for maximal response (GPR15 Coturnix japonica; intracellular calcium, agonist, Fluo-4 fluorescence; peptide, CHO transfected with GPR15): 10 nM
Cc1cccc(-c2[nH]c(C(C)(C)C)nc2-c2ccc3nccnc3c2)n1  ERK1/2 phosphorylation (ERK1/2 (rat); inhibitor, Western blot; NRK-52E; 1 µM, 15 min, together with: TGF-beta 5 ng/mL): inhibited
C[C@@H](N)C(=O)N[C@H]1CO[C@H](O)[C@H](N)[C@H]1O  maximal ΔTm (pre-miR-21 RNA; differential scanning fluorimetry; relative to: untreated, positive = stabilisation): 8.41 °C
H-H[dW][dK]W[dF]K-NH2 (D-Trp, D-Lys, D-Phe, C-amide)  inhibition (CXCR4 (human); calcium mobilization, antagonist, Fura-2 fluorescence; primary human T cells; concentration not given, 20 min, together with: CXCL12 10 nM): 20 to 60%
CC(C)[C@@H]1NC(=O)c2coc(n2)-c2coc(n2)-c2cccc(c2)-c2cccc(c2)-c2nc(co2)-c2nc(co2)CNC1=O  melting temperature shift (human telomeric quadruplex d(TTAGGG)4; UV melting; 20 µM, pH 7.5, together with: 50 mM K+; relative to: DNA without compound): 6.4 °C
Nc1ncnc2c1ncn2[C@@H]1O[C@H](COP(=O)(O)OP(=O)(O)O)[C@@H](O)[C@H]1O  Kd (volume-regulated anion channel; together with: total nucleotide 1 mM): 810 µM
COC1=CC(c2cc3ccccc3[nH]2)=N/C1=C\c1[nH]c(C)cc1C  maximal ΔTm (pre-miR-21 RNA; differential scanning fluorimetry; relative to: untreated, positive = stabilisation): 3.2 °C
CN1C(=O)C=CC1=O  inhibition (bovine lens protease; enzyme activity, inhibitor; concentration not given, 30 min preincubation, 37 °C): ~88% and 88%
C[C@@H](O)[C@H](N)C(=O)O  Km (TsaB TsaC TsaD TsaE, Escherichia coli; substrate; 23 °C, together with: ATP 1 mM, tRNALys 10 µM): 590 ± 90 µM
COCCOC(=O)C1=C(C)NC(C)=C(C(=O)OC(C)C)C1c1cccc([N+](=O)[O-])c1 (stereo not drawn)  Kd (T-type calcium channel, guinea pig; calcium current, blocker, whole-cell patch clamp; guinea pig atrial myocytes): 0.1 µM
O=C(O)C(=O)O  peptide depletion (cysteine peptide Ac-RFAACAA-COOH; DPRA RapidFire-MS/MS; 24 h, pH 7.5, together with: 5.0 µM cysteine peptide): inactive
CN(C)CCc1cc2cc(c1)CNC(=O)c1coc(n1)-c1coc(n1)-c1cccc(n1)-c1nc(co1)-c1nc(co1)C(=O)NC2  melting temperature shift (human telomeric quadruplex d(TTAGGG)4; UV melting; 20 µM, pH 7.5, together with: 50 mM K+; relative to: DNA without compound): 35.9 °C
O=C(/C=C/c1ccc(-n2ccnc2)cc1)N1CCN(C(=O)c2ccco2)CC1  thermal stabilization (ENL YEATS domain; HiBiT CETSA; OCI-AML2; 80 µM; relative to: SGC-iMLLT 40 µM): ≥ 24%
CN1CCN(CCCN2c3ccccc3Sc3ccc(C(F)(F)F)cc32)CC1  current density (anoctamin-1 rat; Ca2+-activated Cl- current; HEK293 transfected; 20 µM, 10 to 70 min, -70 mV): 277 ± 52 pA/pF
WHGSLKQNLWWY  affinity constant (VEGFR-3 (human); binding, ELISA; peptide): 16.4 ± 8.6 µg/mL
CC(C=O)Cc1ccc(C(C)(C)C)cc1 (stereo not drawn)  maximal peptide depletion (cysteine peptide Ac-RFAACAA-COOH; DPRA RapidFire-MS/MS; 24 h, pH 7.5, together with: 5.0 µM cysteine peptide): -15.4%
CC(=O)OCC[N+](C)(C)C  EC50 (muscarinic acetylcholine receptor (Aquarana catesbeiana); IK(M) current, agonist, whole-cell patch clamp; bullfrog atrial myocytes): 0.159 µM
O=C1CNC(=O)c2coc(n2)-c2coc(n2)-c2cccc(c2)-c2cccc(c2)-c2nc(co2)-c2nc(co2)CN1  melting temperature shift (human telomeric quadruplex d(TTAGGG)4; UV melting; 20 µM, pH 7.5, together with: 150 mM K+; relative to: DNA without compound): 4.2 °C
COc1ccc(C(C)=O)cc1  peptide depletion (cysteine peptide Ac-RFAACAA-COOH; DPRA RapidFire-MS/MS; 24 h, pH 7.5, together with: 5.0 µM cysteine peptide): inactive
CC(C)(C)OC(=O)NCC[C@@H]1NC(=O)c2coc(n2)-c2coc(n2)-c2cccc(c2)-c2cccc(c2)-c2nc(co2)-c2nc(co2)CNC1=O  melting temperature shift (human telomeric quadruplex d(TTAGGG)4; UV melting; 20 µM, pH 7.5, together with: 50 mM K+; relative to: DNA without compound): 2.4 °C
CC(O)C(=O)O (stereo not drawn)  peptide depletion (cysteine peptide Ac-RFAACAA-COOH; DPRA RapidFire-MS/MS; 24 h, pH 7.5, together with: 5.0 µM cysteine peptide): inactive
[Cl-].[Cl-].[Mg+2]  remaining activity (bovine lens protease; 1 mM, 37 °C): 111%
COC(=O)c1cccc(C(=O)OC)c1  peptide depletion (cysteine peptide Ac-RFAACAA-COOH; DPRA RapidFire-MS/MS; 24 h, pH 7.5, together with: 5.0 µM cysteine peptide): inactive
Nc1nc2c(ncn2[C@@H]2O[C@@H]3COP(=O)(O)O[C@H]3[C@H]2O)c(=O)[nH]1  EC50 (cone cGMP-gated channel (Morone saxatilis); ion current, agonist, inside-out patch clamp; after EDTA/EGTA exposure, -40 mV): 58.8 µM
N[C@@H](CCC(=O)Nc1ccc(-c2ccc(F)cc2)cc1)C(=O)O  [3H]-L-glutamate uptake (glutamate transporters; PC-3; concentration not given, 5 min, 37 °C, together with: [3H]-L-glutamate 150 µM; relative to: basal uptake): 110 ± 13%
OO  remaining activity (bovine lens protease; 0.5 mM, 37 °C): 48%
Nc1nc2c(ncn2[C@@H]2O[C@H](COP(=O)(O)OP(=O)(O)OP(=O)(O)O)[C@@H](O)[C@H]2O)c(=O)[nH]1  Kd (volume-regulated anion channel; together with: total nucleotide 1 mM): 410 µM
O=C1Nc2ccc(Cl)cc2[C@@](C#CC2CC2)(C(F)(F)F)O1  EC50 (GABAA receptor α2β2γ2; current potentiation, positive allosteric modulator, whole-cell patch clamp; together with: GABA EC30): 8.4 ± 4.9 µM
IINFEKL  Vmax of L-AMC hydrolysis (ERAP1 human L734R; activator; peptide; 100 µM, pH 8.0, 27 °C, together with: L-AMC substrate): 351 ± 5 nmol/min/µg
O=c1c(O[C@@H]2O[C@H](CO)[C@@H](O)[C@H](O)[C@H]2O)c(-c2ccc(O)c(O)c2)oc2cc(O)cc(O)c12  protein level decrease (Sult1a1 (rat); western blot, item: SULT1A1; rats, liver; intravenous, 5 mg/kg, 7 days; relative to: vehicle control): 32.4%
C[N+](C)(C)CCOC(N)=O  GDP dissociation rate increase (G proteins; GDP-free CHO-M2 membranes; 10 and 100 µM, faster fraction; relative to: control): > 100 fold

Repeated from above:
IINFEKL  Vmax of L-AMC hydrolysis (ERAP1 human L734R; activator; peptide; 100 µM, pH 8.0, 27 °C, together with: L-AMC substrate): 351 ± 5 nmol/min/µg
O=c1c(O[C@@H]2O[C@H](CO)[C@@H](O)[C@H](O)[C@H]2O)c(-c2ccc(O)c(O)c2)oc2cc(O)cc(O)c12  protein level decrease (Sult1a1 (rat); western blot, item: SULT1A1; rats, liver; intravenous, 5 mg/kg, 7 days; relative to: vehicle control): 32.4%
C[N+](C)(C)CCOC(N)=O  GDP dissociation rate increase (G proteins; GDP-free CHO-M2 membranes; 10 and 100 µM, faster fraction; relative to: control): > 100 fold
